Measured values pooled from the literature.
Each numbered part is a random draw from the data of one study; scales do not carry over between parts. Changes are numbered by the printed parent chain.

Sample 1
Target: CCNB1, cyclin fold, Cln2 fusion (human)
Technique: yeast growth competition, sequencing
Matrix: yeast
Setting: weak parent motif
Baseline: not given
Reading: higher = stronger binding
Endpoint: normalised enrichment score
Parent: CDKN1B docking peptide (human); PSACRNLFGPVDH
G9P: 0.2
A3S: 0.572
V11D: 0.531
A3P: 0.175

Sample 2
Target: Centromere-binding protein 1, full length, N-terminal tag (CBF1, Saccharomyces cerevisiae, UniProt P17106, residues 1-351)
Chain of UniProt P17106 (whole entry, looked up): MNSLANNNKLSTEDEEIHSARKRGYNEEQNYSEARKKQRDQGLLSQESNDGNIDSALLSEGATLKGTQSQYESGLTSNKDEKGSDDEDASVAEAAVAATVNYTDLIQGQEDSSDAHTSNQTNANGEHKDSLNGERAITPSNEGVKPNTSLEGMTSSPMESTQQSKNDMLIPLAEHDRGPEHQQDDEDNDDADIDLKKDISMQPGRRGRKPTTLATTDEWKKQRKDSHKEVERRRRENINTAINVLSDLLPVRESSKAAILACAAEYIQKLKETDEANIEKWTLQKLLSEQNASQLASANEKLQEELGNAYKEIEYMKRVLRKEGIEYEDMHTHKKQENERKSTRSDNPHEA
Technique: protein-binding microarray
Molecule type: double-stranded DNA, one strand shown
Matrix: in vitro
Concentration: 0.8 µM
Setting: whole 60-bp probe, no competitor
Reading: higher = stronger binding
Endpoint: fluorescence intensity
CTAGTATATATAAATGTCGTGATGCTTCTATGCTTCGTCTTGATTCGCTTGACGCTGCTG: 634 a.u.
TGTACGAAGCTATAAAACGTGACTATAGTAGTTAGGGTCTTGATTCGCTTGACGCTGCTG: 2520 a.u.
CTAATCGCATAACCGCACGTATATACACGCACATTCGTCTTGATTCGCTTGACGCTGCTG: 527 a.u.
CTAGTTAATAACTACCATGTGCATGCTACAAAGTTCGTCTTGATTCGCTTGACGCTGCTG: 886 a.u.
CTAATTAAAAAATATCACGACATTTATAAATCTTTCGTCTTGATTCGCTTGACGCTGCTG: 791 a.u.
TGTACGAAGCTATACATGATGATTATAGTAGTTAGGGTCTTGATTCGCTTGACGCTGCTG: 505 a.u.
CTAAATCTTCATAAATTCGTGACAAATTAAAATTTCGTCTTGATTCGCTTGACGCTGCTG: 545 a.u.
TGTACGAAGCTATTTCACACCATTATAGTAGTTAGGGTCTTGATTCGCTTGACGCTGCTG: 527 a.u.
TGTACGAAGCTATTTTTCATGATTATAGTAGTTAGGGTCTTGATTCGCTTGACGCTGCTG: 528 a.u.

Sample 3
Target: Histone acetyltransferase KAT6A, winged helix 2, GST fusion (KAT6A, Homo sapiens, UniProt Q92794, residues 85-181)
Technique: protein binding microarray
Molecule type: double-stranded DNA, one strand shown
Matrix: in vitro
Concentration: not given
Setting: 8-mer, flanks averaged, mean of 2 arrays, mostly near background
Baseline: not given
Reading: higher = stronger binding
Endpoint: E-score
Target sequence (chain): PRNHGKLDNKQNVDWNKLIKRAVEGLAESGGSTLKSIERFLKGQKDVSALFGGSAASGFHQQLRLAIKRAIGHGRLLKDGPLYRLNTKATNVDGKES
CTACCCCC: -0.213
AAAGACGA: 0.016
CTGACTCA: -0.0828
ATGATCCG: 0.0609
CCGAGCAG: 0.136
AACTACGA: 0.0365
GAAATACC: -0.0407
GGGTAACA: -0.123

Other studies, line by line
PhoQ, residues 284 288 289 292 302 303 AANNSF  fold induction (PhoP, residues 12 14 15 18 19 AQCLL (Escherichia coli, UniProt P23836); Sort-seq, refers to: YFP reporter; E. coli; PhoQ-PhoP variant library, with: 10 µM Mg2+; baseline: high Mg2+ state, higher = stronger signaling): 2.89

For quick reference, copied from above (sample 1):
G9P: 0.2
A3S: 0.572
